{"data": "Results gathered from unrelated publications", "note": "A part holds a random share of what one study measured."}
{"data": "Set 1", "target": "RING finger protein unkempt homolog, zinc fingers 1-6, GST-SBP tag (UNK, Homo sapiens, UniProt Q9C0B0, residues 30-357)", "method": "RNA Bind-n-Seq", "form": "RNA", "medium": "in vitro", "concentration": "not given", "setting": "RNA with constant flanks, human and mouse sites, ends assumed", "baseline": "input RNA pool", "direction": "higher = stronger binding", "UniProt Q9C0B0, sequence (30-357, looked up)": "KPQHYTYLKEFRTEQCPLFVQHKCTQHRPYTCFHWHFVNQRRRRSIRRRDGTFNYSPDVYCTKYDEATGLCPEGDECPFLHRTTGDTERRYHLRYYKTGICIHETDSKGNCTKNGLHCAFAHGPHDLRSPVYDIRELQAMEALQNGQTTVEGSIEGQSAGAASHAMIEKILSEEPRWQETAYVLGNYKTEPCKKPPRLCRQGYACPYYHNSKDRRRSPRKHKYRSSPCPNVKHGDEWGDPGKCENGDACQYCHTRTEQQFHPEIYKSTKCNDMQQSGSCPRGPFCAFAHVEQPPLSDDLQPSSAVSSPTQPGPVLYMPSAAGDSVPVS"}
{"Oligonucleotide": "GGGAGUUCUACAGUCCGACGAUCACCCUGGAGGAUCCCUGGACCGGCAGUGAGAGCGAUAAGUUCGUCCUUUUGGGUUAUCUUGACCAGCUGCGGAAGGAUCCAGCAUUUCUGUCUUCAGAAGCUGUGCUCCCUGACCUGACUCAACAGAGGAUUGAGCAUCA", "bound/input enrichment [ratio]": 0.0901}
{"Oligonucleotide": "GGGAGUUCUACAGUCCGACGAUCGAGAGCCCCACCACCCCUCUGCUGGACGAUGUGGACGACUCUCAAGACAGCCCUAUCUUUAUGUACGCCCCUGAGUUCCAGUUCAUGCCCCCACCCACUUACACUGAGGUGGAUCCGUGCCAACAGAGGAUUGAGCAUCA", "bound/input enrichment [ratio]": 0.137}
{"Oligonucleotide": "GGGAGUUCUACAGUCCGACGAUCCCAGCAGAGAAGAAAUCGGGAGCACAAGUUCACCCCGAAGGGGUUGAACUCAAAGUAAAGAAUUUGGAGGCAGUACAGACAGACUUCAGCAAUGAACCGCUGCAGAAAGUUGUGUGCUUCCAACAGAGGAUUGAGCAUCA", "bound/input enrichment [ratio]": 0.196}
{"Oligonucleotide": "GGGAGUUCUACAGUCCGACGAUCUUCUUUGCCUUCGAGUGUCGCUACCUGGCUGUUCAGCUGUCUCCUGCCAUUCCUGUGUUUGCCGCUAUGCUCUUUCUUUUCUCCAUGGCCACGCUGUUGAGGACAAGUUUCAGUGACCCUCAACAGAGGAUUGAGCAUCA", "bound/input enrichment [ratio]": 0.312}
{"Oligonucleotide": "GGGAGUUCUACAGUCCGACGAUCCCAAAUGUUCAGAAGUUGAAAUGGAUUGUUUCUGGGCGUACUGCACGGCAAUUGAAGCAUAGCUACUACAGAAUAACUCACCUUCCAACAAUUCCUGAAAUGGUCCCUUAACUGGAUUAUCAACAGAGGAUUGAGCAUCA", "bound/input enrichment [ratio]": 0.102}
{"Oligonucleotide": "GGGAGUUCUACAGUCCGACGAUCUGAGCGUCGGCGCCGGGGUUCGGUGGCCUCUAGUGAGAUCUGGAGGAUCCAAGGAUUCUGUAGCUACAAUGUUGUCAAGACUUUUUCGAAUGCAUGGCCUCUUUGUGGCCUCCCAUCCCUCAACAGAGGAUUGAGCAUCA", "bound/input enrichment [ratio]": 0.275}
{"Oligonucleotide": "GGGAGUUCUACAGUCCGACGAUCGAAAAAUUUGAAAUGUUUUUGGUUCACUAGUACAAUGUUUGGUUUUAUUCCUAAAGUAAAUAGCUAUCUAAGAGAGGGCAUUUUCACUUUUUUUUUUUUAAAUUUUGAGACAGGCUCUCACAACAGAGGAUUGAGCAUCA", "bound/input enrichment [ratio]": 6.29}
{"Oligonucleotide": "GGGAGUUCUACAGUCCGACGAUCUUAUUUUACUCAGUUUUGAAAUGAUUUUUUUACUGGCUCUAUUGCCUUAAAAUAACUAAGAGAUUAAUGAUUCUUUGUAUAAUUUUCCUUUUCUUUGUUCUUUUUUUUACAUUUCGCAGACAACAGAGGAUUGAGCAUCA", "bound/input enrichment [ratio]": 0.349}
{"data": "Set 2", "target": "Prothrombin, mature alpha-thrombin (F2, Homo sapiens, UniProt P00734)", "method": "aptamer microarray, sandwich", "form": "DNA with 2'F-ANA", "medium": "in vitro", "concentration": "200 nM", "setting": "whole 15-mer aptamer, many near background", "with": "Cy3 exosite-II aptamer, 400 nM", "direction": "higher = stronger binding", "oligonucleotide": "GGTTGGTGTGGTTGG"}
{"Modification": "2'F-ANA at 1 2 3 4 5 6 8 9 10 14", "mean fluorescence intensity": "51.5 a.u."}
{"Modification": "2'F-ANA at 1 2 3 6 7 8 10 11 15", "mean fluorescence intensity": "66.8 a.u."}
{"Modification": "2'F-ANA at 1 2 3 6 7 8 12 13 14 15", "mean fluorescence intensity": "93.4 a.u."}
{"Modification": "2'F-ANA at 2 3 6 8 10 11 12 14 15", "mean fluorescence intensity": "214 a.u."}
{"Modification": "2'F-ANA at 1 2 3 4 5 6 8 9 10 12 13 14", "mean fluorescence intensity": "55.6 a.u."}
{"Modification": "2'F-ANA at 4 7 10 12 13", "mean fluorescence intensity": "105 a.u."}
{"Modification": "2'F-ANA at 1 4 6 7 10 12 13 15", "mean fluorescence intensity": "53 a.u."}
{"Modification": "2'F-ANA at 3 4 5 6 8 9 10 11 12 14", "mean fluorescence intensity": "86.2 a.u."}
{"Modification": "2'F-ANA at 2 4 5 8 11 13 15", "mean fluorescence intensity": "58.1 a.u."}
{"Modification": "2'F-ANA at 2 3 9 13 15", "mean fluorescence intensity": "583 a.u."}
{"Modification": "2'F-ANA at 1 3 4 6 9 13 14 15", "mean fluorescence intensity": "87.1 a.u."}
{"Modification": "2'F-ANA at 1 2 3 5 8 9 11 12 14", "mean fluorescence intensity": "53.7 a.u."}
{"Modification": "2'F-ANA at 4 7 8 13", "mean fluorescence intensity": "332 a.u."}
{"Modification": "2'F-ANA at 2 3 6 8 9 11 12 13", "mean fluorescence intensity": "696 a.u."}
{"Modification": "2'F-ANA at 1 2 3 4 5 8 11 12 13", "mean fluorescence intensity": "83.4 a.u."}
{"Modification": "2'F-ANA at 5 6 7 8 10 11 14", "mean fluorescence intensity": "46.7 a.u."}
{"Modification": "2'F-ANA at 2 3 5 7 9 12 14 15", "mean fluorescence intensity": "61.7 a.u."}
{"Modification": "2'F-ANA at 2 3 5 6 8 10 11 12 15", "mean fluorescence intensity": "65.6 a.u."}
{"Modification": "2'F-ANA at 1 3 4 7 8 9", "mean fluorescence intensity": "255 a.u."}
{"Modification": "2'F-ANA at 1 3 7 8 10 11 12 14 15", "mean fluorescence intensity": "61.1 a.u."}
{"Modification": "2'F-ANA at 1 2 13 15", "mean fluorescence intensity": "136 a.u."}
{"Modification": "2'F-ANA at 4 5 6 7 12 13 14", "mean fluorescence intensity": "44.4 a.u."}
{"data": "Set 3", "target": "RNA binding protein fox-1 homolog 2, RRM domain, GST-SBP tag (RBFOX2, Homo sapiens, UniProt O43251-10, residues 100-194)", "method": "RNA Bind-n-Seq", "form": "RNA", "medium": "in vitro", "concentration": "365 nM", "setting": "natural RNA segment, single round, ends assumed", "baseline": "no-protein control", "direction": "higher = stronger binding", "Residues (chain)": "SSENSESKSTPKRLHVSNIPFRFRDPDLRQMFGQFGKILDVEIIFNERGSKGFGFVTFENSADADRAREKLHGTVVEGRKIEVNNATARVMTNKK"}
{"Oligonucleotide": "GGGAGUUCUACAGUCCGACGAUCGACAUACUGUUAUUUCUUCUGGGAUUUAUUCUUGGCUGUAAACCCAGAACUAAAUUACAUAGAUGAAUACUCCUGCUCCAGUGGCCUGGAUACCAAUCUCUCCUGUCUUUUGGAAUUCUCGGGUGCCAA", "RBNS enrichment (R)": 0.656}
{"Oligonucleotide": "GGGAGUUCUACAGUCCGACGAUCGAGGAACAAGACCUGAGCGCUGUCCCUGGGGAACCUCACUAGUCAUUCCUUUCCCUUGAUGGGGCUUGUGAUGGACCCAAGGUCUACCUCAGACUUGAGUCUGUUUCCCCUGGAAUUCUCGGGUGCCAA", "RBNS enrichment (R)": 0.256}
{"Oligonucleotide": "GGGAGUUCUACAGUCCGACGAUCAUAUUCCAAAAGUUACAGGAUAGAUGUAAAUCAAUAAAGUCAUUUGGCUGUGUUUUAGACAGCUCCAGAAUAUAUUGUUCAGCGCAGUAAAAUAUAUUUGGAAUUUGAUGUGGAAUUCUCGGGUGCCAA", "RBNS enrichment (R)": 0.66}
{"Oligonucleotide": "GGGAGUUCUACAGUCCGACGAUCAGUGUUACAUUGAUUCUAAAAUUACAGUGUCCCCAUUAGACAACUAUUUUAGGUGCUGGAGUAUGUUUGAAGAGUGUGCUGGGAAAAAGGAAGCAUUUCUUCAUUGAUUUUGGAAUUCUCGGGUGCCAA", "RBNS enrichment (R)": 0.401}
{"Oligonucleotide": "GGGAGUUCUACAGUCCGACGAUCGACCUUUCAUCUUUCACGAACUUGAUCCUGUUAGCAGGUGGUAAUACCAUGGGUGCUGUGACACUAACAGUCAUUGAGAGGUGGGAGGAAGUCCCUUUUCCUUGGACUGGUGGAAUUCUCGGGUGCCAA", "RBNS enrichment (R)": 0.425}
{"Oligonucleotide": "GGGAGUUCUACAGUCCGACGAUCCGUUGGCCACUCCGAGAGGUGGGCCAGUCUGUGGAUCAGAGAUGCACCACCAAGCCAAGGGAACCUGUGUCCGGUAUUCGAUACUGCGACUUUCUGCCUGGAGUGUAUGAUGGAAUUCUCGGGUGCCAA", "RBNS enrichment (R)": 0.32}
{"Oligonucleotide": "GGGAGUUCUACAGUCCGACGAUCUCUUUGUAACUCACUUGGUAAAAGCAAAUGUCUUGUCUCCUUCAGUGGUUCUUUGAAGCUUAGUGAGGCGGAGGCUGCCAGUGUUGGUACCUGUGGAUUUUCCAAUAGUGUGGAAUUCUCGGGUGCCAA", "RBNS enrichment (R)": 0.332}
{"Oligonucleotide": "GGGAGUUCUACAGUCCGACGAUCAAGCAAUGGGCUGCUUCUCCCCAAUCCUCCCUAACAAUUCGUUGUGUGGACUUCUCAUCUAAAAGGUUAGUGGCUUUUGCUUGGGAUCAGUGCUCUCUAUUGAUGUUCUUUGGAAUUCUCGGGUGCCAA", "RBNS enrichment (R)": 0.321}
{"data": "Set 4", "target": "Sal-like protein 4, full length isoform A (SALL4, Homo sapiens, UniProt Q9UJQ4, residues 1-1053)", "method": "universal PBM", "form": "double-stranded DNA, one strand shown", "medium": "in vitro", "concentration": "600 nM", "setting": "8-mer, flanks averaged, mean of replicates", "direction": "higher = stronger binding", "UniProt Q9UJQ4, sequence (whole entry, looked up)": "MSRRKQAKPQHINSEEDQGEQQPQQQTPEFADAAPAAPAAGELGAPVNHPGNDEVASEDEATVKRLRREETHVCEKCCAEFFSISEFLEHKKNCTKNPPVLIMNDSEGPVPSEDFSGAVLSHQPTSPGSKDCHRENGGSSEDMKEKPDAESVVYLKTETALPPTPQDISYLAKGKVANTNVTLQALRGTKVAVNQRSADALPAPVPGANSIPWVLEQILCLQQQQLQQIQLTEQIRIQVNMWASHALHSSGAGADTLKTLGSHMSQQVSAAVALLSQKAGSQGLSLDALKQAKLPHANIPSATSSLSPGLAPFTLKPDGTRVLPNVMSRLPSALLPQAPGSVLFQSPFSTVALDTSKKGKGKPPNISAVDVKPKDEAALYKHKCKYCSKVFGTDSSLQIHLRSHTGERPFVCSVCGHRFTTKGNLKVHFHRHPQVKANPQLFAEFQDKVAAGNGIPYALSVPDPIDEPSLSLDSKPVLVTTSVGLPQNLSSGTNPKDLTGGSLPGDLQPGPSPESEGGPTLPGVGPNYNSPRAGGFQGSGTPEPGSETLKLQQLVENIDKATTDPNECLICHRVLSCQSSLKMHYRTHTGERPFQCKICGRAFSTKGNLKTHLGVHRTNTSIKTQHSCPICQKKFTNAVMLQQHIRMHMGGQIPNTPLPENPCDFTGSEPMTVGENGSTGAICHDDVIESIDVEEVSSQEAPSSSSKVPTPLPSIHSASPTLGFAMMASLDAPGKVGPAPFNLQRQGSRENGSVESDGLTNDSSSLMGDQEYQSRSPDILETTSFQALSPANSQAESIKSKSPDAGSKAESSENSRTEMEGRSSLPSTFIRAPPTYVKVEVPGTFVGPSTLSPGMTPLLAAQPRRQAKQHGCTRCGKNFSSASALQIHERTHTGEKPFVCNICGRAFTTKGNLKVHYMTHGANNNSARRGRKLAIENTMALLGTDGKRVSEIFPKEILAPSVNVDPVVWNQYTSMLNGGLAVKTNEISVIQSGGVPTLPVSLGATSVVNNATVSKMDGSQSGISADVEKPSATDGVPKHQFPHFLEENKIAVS"}
{"Oligonucleotide": "AGTCCTAA", "E-score": 0.101}
{"Oligonucleotide": "GCAGTACC", "E-score": -0.0772}
{"Oligonucleotide": "GACCACGC", "E-score": -0.216}
{"Oligonucleotide": "CGTACCCC", "E-score": -0.265}
{"Oligonucleotide": "ATTGCCGA", "E-score": -0.0269}
{"Oligonucleotide": "AATTCCAA", "E-score": 0.229}
{"Oligonucleotide": "ACGCCAGT", "E-score": -0.254}
{"Oligonucleotide": "GCAGAAGA", "E-score": -0.0286}
{"Oligonucleotide": "TAGAACTA", "E-score": 0.0722}
{"Oligonucleotide": "ATCGAGAC", "E-score": -0.0482}
{"Oligonucleotide": "TGGATAAA", "E-score": 0.254}
{"Oligonucleotide": "GATATAAA", "E-score": 0.277}
{"Oligonucleotide": "CATTAATC", "E-score": 0.234}
{"Oligonucleotide": "CCTTTTAG", "E-score": -0.0716}
{"Oligonucleotide": "AGTGATCG", "E-score": -0.0463}
{"Oligonucleotide": "GCTTTCCC", "E-score": -0.27}
{"Oligonucleotide": "ACCCTGAT", "E-score": -0.0611}
{"data": "Set 5", "target": "TATA-box-binding protein 1 (TBP1, Arabidopsis thaliana, UniProt P28147, residues 1-200, full length assumed)", "method": "protein-binding microarray", "form": "double-stranded DNA, one strand shown", "medium": "in vitro", "concentration": "not given", "setting": "k-mer, scored over probes, only values ≥0.25", "direction": "higher = stronger binding", "Construct (chain)": "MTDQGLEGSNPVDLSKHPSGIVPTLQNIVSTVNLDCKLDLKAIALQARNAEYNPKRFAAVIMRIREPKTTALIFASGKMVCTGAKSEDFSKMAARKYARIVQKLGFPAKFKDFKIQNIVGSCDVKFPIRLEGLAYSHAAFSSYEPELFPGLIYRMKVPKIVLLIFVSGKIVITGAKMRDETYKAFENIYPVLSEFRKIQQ"}
{"Oligonucleotide": "TATAACA", "E-score": 0.417}
{"Oligonucleotide": "AAAAACA", "E-score": 0.274}
{"Oligonucleotide": "ATAACAT", "E-score": 0.319}
{"Oligonucleotide": "GACTTAA", "E-score": 0.26}
{"Oligonucleotide": "GTACATA", "E-score": 0.278}
{"Oligonucleotide": "ATCTTAA", "E-score": 0.355}
{"Oligonucleotide": "ATGTTAA", "E-score": 0.321}
{"Oligonucleotide": "CTTAAAC", "E-score": 0.253}
{"Oligonucleotide": "CGTTATA", "E-score": 0.386}
{"Oligonucleotide": "AATAAAC", "E-score": 0.367}
{"Oligonucleotide": "CTCTTTA", "E-score": 0.305}
{"Oligonucleotide": "ACTTAAT", "E-score": 0.285}
{"Oligonucleotide": "CTTTTTA", "E-score": 0.381}
{"Oligonucleotide": "AAACATA", "E-score": 0.275}
{"Oligonucleotide": "ATATGCG", "E-score": 0.304}
{"Oligonucleotide": "ATAATAA", "E-score": 0.42}
